Results from different studies.
Lines come from different studies, so protocols differ. ± marks the error that the study gave.
Organism: Mycobacterium tuberculosis

| Compound | assay | test system | setting | measurement | result |
| --- | --- | --- | --- | --- | --- |
| Nc1nc(N)c2c(Cl)c(CNc3ccc(C(=O)O)cc3)ccc2n1 | intracellular growth | THP-1 |  | MIC | ~0.05 µM |
| CC(O)c1cc2[nH]c(=S)n(Cc3cccnc3)c(=O)c2cc1Cl (single isomer, unassigned) |  | PptT conditional knock-down |  | MIC90 | 1.66 µM |
| CC(=O)Oc1ccc2nc3ccc(=O)cc-3oc2c1 |  | mc2 6206 PA-824-resistant ddn mutant | 7 days | MIC90 | > 256 µM |
| Oc1cc(Cn2cc(C3CC3)nn2)ccc1Oc1ccccc1Cl | Alamar Blue |  | 6 days plus 24 h, 37 °C | MIC | 0.156 µg/mL |
| O=C(C[N+]1=C(c2ccc(F)c(F)c2)c2cccn2CC1)c1ccccc1 |  | H37Rv | added: kanamycin | kanamycin MIC | ≤ 1.25 µg/mL |
| N#Cc1ccccc1Oc1ccc(Cn2cc(C3CCCC3)nn2)cc1O | Alamar Blue |  | 6 days plus 24 h, 37 °C | MIC | 0.625 µg/mL |
| Cc1ccc(C(=O)C[N+]2=C(c3ccc(F)c(F)c3)c3cccn3CC2)cc1 |  | H37Rv | added: kanamycin | kanamycin MIC | ≤ 1.25 µg/mL |
| CO[C@H]1[C@H](O[C@H]([C@H]2O[C@@H](n3ccc(=O)[nH]c3=O)[C@H](O)[C@@H]2O)[C@H](NCCCNC(=O)[C@@H](NC(=O)[C@@H](NC(=O)N[C@H](C(=O)O)C(C)C)[C@@H]2CCNC(=N)N2)[C@@H](OC(=O)CCCCCCCCCCCCNC(=N)N)C(C)C)C(N)=O)O[C@H](CN)[C@H]1O | alamar blue | H37Rv |  | MIC90 | 0.08 ± 0.0021 µg/mL |
| O=C(C[N+]1=C(c2ccc(F)c(F)c2)c2cccn2CC1)c1ccc(F)cc1 |  | H37Rv | added: kanamycin | kanamycin MIC | ≤ 1.25 µg/mL |
| O=c1c2ccccc2[nH]c(=S)n1Cc1cccnc1 |  | PptT conditional knock-down |  | MIC90 | 3.1 µM |

Repeated from above:
| Compound | assay | test system | setting | measurement | result |
| --- | --- | --- | --- | --- | --- |
| CC(=O)Oc1ccc2nc3ccc(=O)cc-3oc2c1 |  | mc2 6206 PA-824-resistant ddn mutant | 7 days | MIC90 | > 256 µM |
